Results pooled from the literature.
Parts stem from different laboratories: compare values within a part only. Changes are numbered by the printed parent chain.

Study 1
Target: RING finger protein unkempt homolog, zinc fingers 1-6, GST-SBP tag (UNK, Homo sapiens, UniProt Q9C0B0, residues 30-357)
Chain of UniProt Q9C0B0 (30-357, looked up): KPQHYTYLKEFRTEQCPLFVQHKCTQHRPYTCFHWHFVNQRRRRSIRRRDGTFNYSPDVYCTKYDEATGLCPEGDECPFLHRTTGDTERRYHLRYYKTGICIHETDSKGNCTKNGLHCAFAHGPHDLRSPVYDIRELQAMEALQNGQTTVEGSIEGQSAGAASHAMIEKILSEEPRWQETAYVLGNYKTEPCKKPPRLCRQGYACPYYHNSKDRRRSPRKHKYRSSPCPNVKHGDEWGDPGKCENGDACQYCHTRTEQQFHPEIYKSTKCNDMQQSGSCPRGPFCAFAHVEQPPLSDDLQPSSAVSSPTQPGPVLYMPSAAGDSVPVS
Technique: RNA Bind-n-Seq
Form: RNA
Medium: in vitro
Concentration: not given
Setting: RNA with constant flanks, human-mouse chimeric sites, ends assumed
Reference: input RNA pool
Reading: higher = stronger binding
Measurement: bound/input enrichment
Shared flanks, not repeated: GGGAGUUCUACAGUCCGACGAUC … CAACAGAGGAUUGAGCAUCA
GAAUCCUACUCAGGCGGAUUUUGCAACACCAAGCUCACAGCAGCAGCAUCUUAGUCACAGUAGGGUAGCUUUAGGGCUCUGUGGCCAGGGUUUUAUUCACAUGCAGGUUUUGAAAAUGUA: 0.508 ratio
UGGCGCCUGCGCUCCCCACUCGUGUUUUUAAGUGUAUUUUUAUAAGAUACAUGUAUUUGUAAUAGAUCUUUUGUUACAUAAUGCUGAAAUGCUACUGGAGAUUAUGAAAAAAUGUUAAAU: 0.326 ratio
UGGGCACUCUAUCAGAUAUAUUAAUUUUUUAAUGUAGAUGUAAUUUUAAAAAUGAAUGGCUACUUUACACGUUUAACUAGGGUUUUACUAUAUAUGUGUGUGUAUAUAUAUAUAUAUAUA: 22.8 ratio
ACUCUUGACUCUUUCCAUCCUCUUCCUUUCCCUCUUGAUAUUCAAGGCCAUGAAUCCCAAAAUAGCUGUCUUAGUGGCUAGCACCCACCCAAACUGAGAAUAAAUCCACCCCAGUGUCUC: 1.13 ratio
UCUGGUCACACUCGUGUGUAUGGUGUUUGCUUUGUGGACACUUCACUGGGAAAGUUUUUCAUCGGCCAGUUUUCGGAUGAUCGCCAUUGUUCCAGAUUUAGGACGCUAGUGGCUCACUAU: 0.208 ratio
GGCUGCUGGUGACUGUCCUGGAGUGGCUGGAGUUCCCCCGGAACCUGGCGCAGGUUAAUUUUAGAAAAUGCCAAGUAGGAAGUUUGUUGAGGGUGAAGUGGUCAGAGGCCGAUGGCCUGG: 3.33 ratio
UUACCCGAGAACGAGGAUGAGCUGGAGAGCACCAAUAGGCGCUACACCAAGAGGGACUGCAGCACUUUCCUCAGAACUAGCGAGACGGGCAUCGUGGACCAGGUCAUGGUCACUCUCAAC: 0.147 ratio
UGUAGUUUCUUGAUUUAGUGGCUGGGCCUUUUCUUUCUUUCCUUUAGGAAAAGCCUAAAGAUUAGGUUGUAAGAAAAACAGAAGCCAUGUUUCGAAGGAAGACCUGUCAGGUAUUUCGUC: 0.152 ratio
AAAGCCCAAGUAUUUUGAAAAAAUUCAAACAGAUUUGACAAGGGUAGCCAGCUUGGAGUCUAGCAACUUUGCCAAUGGUUUACCAAUCUGGGGGCUUGUUUUUCUUUUCUUCUUUCAAAU: 0.329 ratio
GAAUCCUACUCAGGCGGAUUUUGCAACACCAAGCUCACAGCAGCAGCAUCUUAGUCACAGUAGGGUAGUUUUGGGGCAAUAUUGCCAUGGUUUUACUCACAUGCAGGUUUGGAAAAUGUA: 1.08 ratio

Study 2
Target: Prothrombin, mature alpha-thrombin (F2, Homo sapiens, UniProt P00734)
Technique: aptamer microarray, sandwich
Form: DNA with 2'F-ANA
Medium: in vitro
Concentration: 200 nM
Setting: whole 15-mer aptamer, many near background
Added: Cy3 exosite-II aptamer, 400 nM
Reading: higher = stronger binding
Measurement: mean fluorescence intensity
Oligonucleotide: GGTTGGTGTGGTTGG
2'F-ANA at 1 7 8 9 11 12 13 14: 109 a.u.
2'F-ANA at 3 5 6 12 13 14 15: 83.8 a.u.
2'F-ANA at 1 3 6 7 11 12 14: 102 a.u.
2'F-ANA at 1 4 5 7 9 11 13 14 15: 47.2 a.u.
2'F-ANA at 3 4 7 8 10 12 15: 341 a.u.
2'F-ANA at 1 2 3 4 8 12 13 14 15: 81.1 a.u.
2'F-ANA at 1 2 3 6 7 8 10 13 15: 103 a.u.
2'F-ANA at 1 5 6 11 12 14 15: 45.4 a.u.
2'F-ANA at 3 4 5 10 12 13: 53.5 a.u.
2'F-ANA at 1 2 3 4 5 7 11 14: 44.1 a.u.
2'F-ANA at 5 7 9 10 12 13 14 15: 44.7 a.u.
2'F-ANA at 1 4 6 7 9 10 13 14: 52.7 a.u.
2'F-ANA at 2 6 7 8 13: 347 a.u.
2'F-ANA at 3 8 9 10 11 12 14 15: 384 a.u.
2'F-ANA at 2 3 7 8 11 13 15: 680 a.u.
2'F-ANA at 1 2 3 5 12 13 14 15: 46.6 a.u.
2'F-ANA at 1 2 3 4 5 9 11 14: 74.4 a.u.
2'F-ANA at 1 6 12 13: 294 a.u.
2'F-ANA at 1 5 7 9 10 13: 46.3 a.u.
2'F-ANA at 5 7 8 10 11 14: 44.2 a.u.
2'F-ANA at 4 6 9 10 11 15: 74.2 a.u.
2'F-ANA at 5 8 9 10 12: 48.1 a.u.
2'F-ANA at 4 5 6 7 11 14: 43.8 a.u.
2'F-ANA at 2 4 6 7 11 12 15: 388 a.u.
2'F-ANA at 2 3 4 6 7 8 10 11 15: 189 a.u.

Study 3
Target: Histone acetyltransferase KAT6A, winged helix 1, GST fusion (KAT6A, Homo sapiens, UniProt Q92794, residues 1-85)
Technique: protein binding microarray
Form: double-stranded DNA, one strand shown
Medium: in vitro
Concentration: not given
Setting: 8-mer, flanks averaged, mean of 2 arrays, mostly near background
Reference: not given
Reading: higher = stronger binding
Measurement: E-score
Construct (chain): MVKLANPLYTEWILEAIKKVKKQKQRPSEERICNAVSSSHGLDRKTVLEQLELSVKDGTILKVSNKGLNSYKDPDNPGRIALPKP
CTGAATCC: -0.0471
CGTTTGCA: -0.0264
CACCAGCC: -0.0467
TGTGTTAA: -0.00025
ACAATGGC: -0.0686
TATCTCCA: -0.172
CGGGGATC: 0.232
ACTTCTGC: 0.016
CCCCATTA: -0.172
CCTGAAAC: 0.0616
AACAAGGA: -0.103
ATTCCTAG: -0.194
ATCGCGTG: 0.146
AACCCTGT: -0.169
TAACCTAA: -0.0965

Study 4
Target: RNA binding protein fox-1 homolog 2, RRM domain, GST-SBP tag (RBFOX2, Homo sapiens, UniProt O43251-10, residues 100-194)
Technique: RNA Bind-n-Seq
Form: RNA
Medium: in vitro
Concentration: 365 nM
Setting: natural RNA segment, single round, ends assumed
Reference: no-protein control
Reading: higher = stronger binding
Measurement: RBNS enrichment (R)
Shared flanks, not repeated: GGGAGUUCUACAGUCCGACGAUC … UGGAAUUCUCGGGUGCCAA
Target sequence (chain): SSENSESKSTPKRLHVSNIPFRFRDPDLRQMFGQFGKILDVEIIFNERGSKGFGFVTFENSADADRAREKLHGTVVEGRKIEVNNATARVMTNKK
UUCCUUUCCUCCUCUCAGUGUCCUCAGCACCCACAAGGAAUUUUCCUAUCACUGUGAACUUUGCUGGUACAGAGGAAUAAUAUCUGCCUUCACCUUUUUUUUUUUGGACC: 0.847
AACGUACAGGCCAUCAAGACUAUUUAUUUAAAUACAAAAAAAGGGGAAAACACACACACGGAAAAAAAAUUGUAAGCACUUUUUUUGUAAAACCAAUGUCUGUUUUGUUA: 0.713
GCUCUUUGGUUUCUUAAAAGGAAAGCUUGUUUUCUUUCCUUUAUCAUUACAGAGGUAUGUCUUUGGUUCUUAAACUAUCUGUCUAAAAUAAAGCUGUAAAAAAUUAACAG: 0.401
CACGCUUCGCUGCUACCACCCUGGGCUGGACUGGAGGGUGGGUGCGCCAACUCCCACGCAUUCGUGGGCAGAGCCCCGAGGCUGGUGGGCAGGACAAGGGGACUGGAAGA: 0.477
UCUCUUGUUUUCAGGGAAAGAACAUAAAAGCUUUUUGAACUACAGCCUUUUUAAAAGAGGGAUGGGAGGAUAUUACAGUAAGAAAUUAGGCUUUCUAAAAGUAUGAAACA: 0.452
CCCCAGUGGGGAGGUGACUGUGUUUCCCAGAGUGUGAGCCGCUCUCCUCCCCCUAAAAAGCUGACUCACUGUGAGUGACCUUGGGCAAGUUCCCAAACCUCCUUGUGCCU: 0.34
GUGGAGUCUUGUGUACUAAAGUGCUAUCCGCUGGGCCUUUGGGAUUGAAGCAGUAGAAAGCGAAAAGGCUGGGCACCAGGCUUCAAUCUCUGAGAAUCUAAACUCUUACC: 0.314
AUGAUAUCUAGGCAUAACCUAGCCUGUGAGGAACCUAGUUAGGAAAGACAACUGACAUUUAUUGAAUAUCAUGCACUAGUCCCUUACAUAUGUCAUAUUUUAAUUAUAGA: 0.913
UCUAGCCUGCUGUGGAAGGAAACAACGUGACUCAAGAUGAAGCUGUUUGUAUGUAUCCUUAUCAAAUAUAUUCUAUAAGGAAAUAAAAUCUGAAAAGUGACUUUCUUAUU: 0.923
AAAAAUCAGCGAGCCUUCGCAUUUGAUGCCAAGUUUUUGUUACAGAUUAAUUUUUCCAUAAAACCAUUUUGAACCAAUGAACCAGUCAAUAAUUUUAAGGUUCUGUUUUA: 1.06
GAGGGCUUAGGCUGUCUUAGGUGCACACUUGCACGGUCUCCAUGGCCUCCGUGAGCAUCUUUGUAGCUAGCAAUGAGGAAGUGCAGGUGUCUACAGGCCAUCACGUGGGG: 0.686
GGGCCUCAAAGAUUCAAAGAUUAAAAACAAAAAGCUUUUGAUGGAAAAGAUGUGGGUGGAUAGUAUAUUUCUACAGGUGGGUCAGGUUUGGUAGCAGUUUGAUGUGCUGG: 0.967

Study 5
Target: CCNE1, cyclin fold, Cln2 fusion (human)
Technique: yeast growth competition, sequencing
Medium: yeast
Setting: weak parent motif
Reference: not given
Reading: higher = stronger binding
Measurement: normalised enrichment score
Parent: CDAN1 docking peptide (human); RGARSQLFPPTEA
P10A: 0.312
L7A: -0.00706
R4A: -0.0533
G2A: -0.119
